Results from different studies.
Parts stem from different laboratories: compare values within a part only.

Study 1
Target: Interferon regulatory factor 7, full length, phosphomimetic (IRF7, Homo sapiens, UniProt Q92985, residues 1-503, S101K/S471D/S472D/S475D/S476D/S477D/S483D/S484D/S487D)
Method: protein-binding microarray
Form: double-stranded DNA, one strand shown
Matrix: in vitro
Tested at: 250 nM
Notes: 60-bp whole probe
Added: salmon DNA 0.4 mg/ml
Relative to: random background probes
Reading: higher = stronger binding
Constant ends, left off below: GCCTAGCAC … GTCTTGATTCGCTTGACGCTGCTG
Residues (chain): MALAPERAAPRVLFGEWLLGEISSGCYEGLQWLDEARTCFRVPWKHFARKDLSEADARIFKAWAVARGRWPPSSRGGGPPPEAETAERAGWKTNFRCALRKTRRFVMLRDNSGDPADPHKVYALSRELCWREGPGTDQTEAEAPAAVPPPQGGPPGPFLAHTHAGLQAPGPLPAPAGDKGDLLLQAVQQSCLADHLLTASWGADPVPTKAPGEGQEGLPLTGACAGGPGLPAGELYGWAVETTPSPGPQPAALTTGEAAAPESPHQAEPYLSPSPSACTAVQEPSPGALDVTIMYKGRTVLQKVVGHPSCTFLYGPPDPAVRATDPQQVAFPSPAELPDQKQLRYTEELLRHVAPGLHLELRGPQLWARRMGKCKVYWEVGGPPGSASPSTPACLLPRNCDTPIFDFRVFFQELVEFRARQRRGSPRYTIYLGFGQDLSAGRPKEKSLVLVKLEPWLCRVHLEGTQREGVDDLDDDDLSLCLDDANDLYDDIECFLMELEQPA
Oligonucleotide | log fluorescence [z-score]
TTAGAACTGGGGACTGGGTTAGTGCTA | -0.438
CACTTTCTTTAACTCATTCTGTGCTAG | 2.06
GACGGAATGCTTTTCCTGACGTGCTAG | -0.105
TAGATCGTCCCTTTGAGAGGGTGCTAG | 0.432
GTCGGTTTCGGTCTCGGGACGTGCTAG | 9
GACGGTTGCCTTCTCCTGACGTGCTAG | -0.242
GACCAGGGGCCACAGCCTCAGTGCTAG | -0.517
GACGGTTCCGGTTTCGAGACGTGCTAG | 7.94
GTATATATAATATATATTCATGTGCTA | 0.401
GACGGTCTCCTACTGCTGAGGTGCTAG | -0.443
GACGATGCCAGTTTCGAGACGTGCTAG | 3.08
TTAGATGTCAGACTGGATTAGTGCTAG | -0.264
TTAGGTATCGACCTTCGGTTAGTGCTA | 0.185
TTAGGTCCCCTACTGCTTTAGTGCTAG | 0.121
GACGACATCGGGACTGGAGACGTGCTA | -0.539
TCACTTTCCTTACTTCCCACTGTGCTA | 2.88
GACTATTTCGGGTATCGAGACGTGCTA | 1.3
TTAGATATGGGGACTGGATTAGTGCTA | -0.0128
GACGAACTGGGGTATCCAGACGTGCTA | -0.855
TTAGGACTGCTTCTCCTTTCGTGCTAG | 0.656
TCAGATTTATCAAATGTGACTGTGCTA | -0.25
GACGGTATCCTTCTCCGGACGTGCTAG | 0.3
TCAGCTCTTGTTTTCACACTGTGCTAG | 0.242
GACGATCTCATACTGGAGACGTGCTAG | -0.28

Study 2
Target: Centromere-binding protein 1, full length, His-tagged (CBF1, Saccharomyces cerevisiae, UniProt P17106, residues 1-351)
Chain of UniProt P17106 (whole entry, looked up): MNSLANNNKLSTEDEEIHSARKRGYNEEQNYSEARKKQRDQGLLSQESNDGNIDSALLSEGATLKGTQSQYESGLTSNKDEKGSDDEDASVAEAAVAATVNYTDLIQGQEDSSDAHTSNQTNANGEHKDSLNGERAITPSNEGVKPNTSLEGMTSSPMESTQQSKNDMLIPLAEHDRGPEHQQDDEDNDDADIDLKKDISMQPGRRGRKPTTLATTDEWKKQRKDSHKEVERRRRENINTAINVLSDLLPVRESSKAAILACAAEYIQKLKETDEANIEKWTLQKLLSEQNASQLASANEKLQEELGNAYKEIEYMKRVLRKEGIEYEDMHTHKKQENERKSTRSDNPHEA
Method: competition protein-binding microarray
Form: double-stranded DNA, one strand shown
Matrix: in vitro
Tested at: 2 µM
Notes: whole 60-bp probe, lowest competitor level
Added: Pho4 competitor, 0.05 µM
Reading: higher = stronger binding
Constant ends, left off below: … GTCTTGATTCGCTTGACGCTGCTG
Oligonucleotide | fluorescence intensity
GGCTAGTGCCAATATCACAAACAATAGGGACATCCA | 79.9 a.u.
CTAACGAAGGTTTGAGATGTGGGTGACAAGCCAAGT | 61.6 a.u.
AAGACCGGTGCTTTGACCGTTTCCAATACGGAAAGA | 66.3 a.u.
CCGGCTTCAATCGTCCCCGTGCCAGATAAACCAAAA | 218 a.u.
CATACCCAACCTTGCCCCGTGGGTGAAGATATTTGT | 89.8 a.u.
CGCGAACGAATCCATCACGCAGCCTCGCCTTGAGAC | 74.9 a.u.
CTTGGTTATCTTTGACATGTGTTTCGTTCAGGCGAG | 184 a.u.
AATAAGTCGATCCAACACGTGGTGAGATACTAGCAG | 1220 a.u.
CTTCTGTAAATTTGTCACGCGACTTGACGCGCCCCG | 765 a.u.
TTCTTTAGAGGTTCACACGTAGTAAAAGAAAAAAAA | 80.4 a.u.
GTCTTGTCTCATTTTCACGTGCTCTTCCCCACTTCA | 1140 a.u.
TTGAGCTACCCTTTGCACGTTCTTTCCAATATGCAG | 117 a.u.
GATCAGCATATCCGTCACGTTCTGCTCATCGGGACT | 465 a.u.
GGTCCATTCGGCTTGCTGGTGGTACTGAGACAGATA | 61.2 a.u.
CTCCGAAAAGAATAGCATGTGCAAGATGAGTTACCG | 178 a.u.
CATACCCAACCTTTTCACGTGAGTTAAGATATTTGT | 1110 a.u.
CTAACGAAGGTTTGAACGGTGGGTGACAAGCCAAGT | 61.9 a.u.
TGCGCAACAACTTGGCTCGTGGGTGTATGTCTAGAA | 71.7 a.u.
AATCGCTCATTATCTTCGCTGCCATTTTCACCCTGA | 62.8 a.u.
CGGGGTTAAGTTTGGACTGTGGGTGGCTTGCAGCAG | 78.9 a.u.
GTAAGTAATGTACTTCACGTGTGTTCCACTGGTAAT | 657 a.u.
CTTTCCCGATCTTGAAATGTGGGTGTAGCACATTTG | 83.1 a.u.

Study 3
Target: RNA binding protein fox-1 homolog 2, RRM domain, GST-SBP tag (RBFOX2, Homo sapiens, UniProt O43251-10, residues 100-194)
Method: RNA Bind-n-Seq
Form: RNA
Matrix: in vitro
Tested at: 365 nM
Notes: natural RNA segment, single round, ends assumed
Relative to: no-protein control
Reading: higher = stronger binding
Constant ends, left off below: GGGAGUUCUACAGUCCGACGAUC … UGGAAUUCUCGGGUGCCAA
Oligonucleotide | RBNS enrichment (R)
GAGGGGUUCUAAUGGAAUGGAUGGGGAUGUCCACACACGCAUUCAGAUGGCUGUACAACAGGUUGUAGGGCUGGUAGUAUGAGGUGCUUGGGAAGUUUUGUUGGGUCAAG | 1.79
ACAGACUUAACUUGAUGAUGGAAAUGAUGAAAAACAGGCCUAAUGUAGGUGUAAAAGUGUAUUCAAACUCUAGACACGGCUAAUCAGAUUUUAAUUCAAUCAUACACACA | 0.465
GACAUGUUGCAGAAGACCAGAUCAUUUUUAUACAGAAUGUGAAAUACUGAUACAGUUAUUCUUUUUUUUAAAGAACAUUGUUUUAUAAAGAACGUGAUUUCCAGUGAUCU | 0.521
UGAGCUUCUAGAGGGAUGGUUUGGCUUACUAAUUUAUCUUCCCUGAAAUAUGUUUGAGUAAAAAAGAGUUGCCUGCCACAAUUUAGUGUUGGGGUUCCAGUGGAGCUGAG | 1.55
UAUUUUUUAAAAAGUUGAGUAUCUGAGUUAAAAUUUCCAAAUCUUUAUUUUACACCACCUUAAAAAUUAUAUGAGAACAAGGUACAUGCAUUAUGUGUCACAUUACUGGG | 1.03
AGUGGGGGAAAGUGCUAUUUCCUAUUUUCACCAAAAUUGGGGAAGGAGUGCCACUUUCCAGCUCCACUUCAAAUUCCUUAAAAUAUAACUGAGAUUGCUGUGGGGAGGGA | 0.543
GGAAGAUAGGGUCCAACAGCGAGAGCCAGGCCCCUCCCCACCCCCACCAGCUCUCUCUAUCAUGGAUCUGCACCUUCUCGCCCUUGUCUCUCCUGAGUCAUGACGGGUCA | 0.379
GAAAGCUACUCAAAGCCAGCCGUAAGUCUAUGGUAGAAUGUGAUGGAACAUGUUGGUGGAAGCUUGUACAAUAGAACACAUUGGUGGGAGCUUGUACAUACUUUUUUAUG | 2.22
CCUGCUCCUCCACCCCCUCCCAUCACUAUCCAUAGAAUCAGUGGUGCAGGACCGAAAGCCAGACUCAGCCCCUUGUCUCCCUGCACCUGUCCCACUUGACAUUUUUUAAC | 0.785
CCCUGCACCCACUCCCUUCAUAGAAUCUAGUCAGAAUAACGCCUCUGGGGGUGCAGGUUCUCGGACCACAUCGAGGGACAGCUCCCUGUACCAGGAGAGUUGAGAGAUAG | 0.487
AAGGCCUUGAUGUGAAUUUUCUUUGGUACAAAUAGGAAUGGCCCACUGAGGCAGAGGAGUAAGAGUGGUCCAUACACCCAAAUGCCAGCAAAUUGGCAUCUCAUUCUACC | 0.489
UUGCACAUGAACUGUCACAUGUUUAAAAAUGUGUUUUUUAGAGAGCCUCAGUCUUACUGAUUUCAAACACUUUUUUCUUCUGUGUAUUGCUUUUAAGAGAGCCAUCAGUU | 0.378

Study 4
Target: Prothrombin, mature alpha-thrombin (F2, Homo sapiens, UniProt P00734)
Method: aptamer microarray, sandwich
Form: DNA with 2'F-ANA
Matrix: in vitro
Tested at: 200 nM
Notes: whole 15-mer aptamer, many near background
Added: Cy3 exosite-II aptamer, 400 nM
Reading: higher = stronger binding
Oligonucleotide: GGTTGGTGTGGTTGG
Modification | mean fluorescence intensity [a.u.]
2'F-ANA at 7 8 10 12 13 | 269
2'F-ANA at 3 4 5 7 9 10 12 14 | 48.8
2'F-ANA at 3 9 10 15 | 613
2'F-ANA at 1 5 7 8 12 13 15 | 89.4
2'F-ANA at 1 3 4 5 8 10 11 13 14 | 50
2'F-ANA at 3 4 10 14 15 | 207
2'F-ANA at 4 5 6 10 13 15 | 44.6
2'F-ANA at 1 2 3 5 7 8 9 11 13 14 | 90.4
2'F-ANA at 1 3 4 6 9 | 173
2'F-ANA at 1 2 4 5 6 7 10 12 13 14 15 | 48.8
2'F-ANA at 1 2 5 7 9 10 11 12 13 14 | 48.9

Repeated from above (study 2):
Oligonucleotide | fluorescence intensity
CCGGCTTCAATCGTCCCCGTGCCAGATAAACCAAAA | 218 a.u.
CATACCCAACCTTGCCCCGTGGGTGAAGATATTTGT | 89.8 a.u.
CGCGAACGAATCCATCACGCAGCCTCGCCTTGAGAC | 74.9 a.u.
CTTGGTTATCTTTGACATGTGTTTCGTTCAGGCGAG | 184 a.u.
AATAAGTCGATCCAACACGTGGTGAGATACTAGCAG | 1220 a.u.
CTTCTGTAAATTTGTCACGCGACTTGACGCGCCCCG | 765 a.u.
TTCTTTAGAGGTTCACACGTAGTAAAAGAAAAAAAA | 80.4 a.u.
GTCTTGTCTCATTTTCACGTGCTCTTCCCCACTTCA | 1140 a.u.
TTGAGCTACCCTTTGCACGTTCTTTCCAATATGCAG | 117 a.u.
